Measurements pooled from the literature.
Each numbered part is a random draw from the data of one study; scales do not carry over between parts.
Sequence of UniProt O43283 (whole entry, looked up): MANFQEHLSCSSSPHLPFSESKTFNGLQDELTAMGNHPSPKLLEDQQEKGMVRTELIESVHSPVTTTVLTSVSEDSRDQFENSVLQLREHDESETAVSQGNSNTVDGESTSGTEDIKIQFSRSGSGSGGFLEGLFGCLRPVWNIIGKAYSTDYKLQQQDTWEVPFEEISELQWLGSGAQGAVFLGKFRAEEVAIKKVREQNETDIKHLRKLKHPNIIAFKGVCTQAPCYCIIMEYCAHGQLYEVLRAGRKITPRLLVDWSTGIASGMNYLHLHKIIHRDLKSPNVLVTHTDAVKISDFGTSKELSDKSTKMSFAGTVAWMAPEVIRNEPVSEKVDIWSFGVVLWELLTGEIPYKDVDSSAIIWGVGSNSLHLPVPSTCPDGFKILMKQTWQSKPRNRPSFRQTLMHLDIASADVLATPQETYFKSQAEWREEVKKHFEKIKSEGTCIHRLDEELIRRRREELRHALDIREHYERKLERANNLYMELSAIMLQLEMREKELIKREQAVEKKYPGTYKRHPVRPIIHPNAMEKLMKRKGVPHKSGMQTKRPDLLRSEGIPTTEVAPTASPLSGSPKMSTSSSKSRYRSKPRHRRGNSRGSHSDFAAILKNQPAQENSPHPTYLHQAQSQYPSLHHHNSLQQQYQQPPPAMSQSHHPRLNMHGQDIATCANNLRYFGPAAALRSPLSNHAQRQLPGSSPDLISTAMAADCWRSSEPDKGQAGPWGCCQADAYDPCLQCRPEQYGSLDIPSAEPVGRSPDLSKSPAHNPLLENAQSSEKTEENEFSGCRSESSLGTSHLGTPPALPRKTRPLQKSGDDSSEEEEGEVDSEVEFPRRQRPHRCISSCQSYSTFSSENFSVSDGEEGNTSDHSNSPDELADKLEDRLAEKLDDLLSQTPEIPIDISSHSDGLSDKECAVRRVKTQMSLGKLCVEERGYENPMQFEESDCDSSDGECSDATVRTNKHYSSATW
Sequence of UniProt Q13523 (whole entry, looked up): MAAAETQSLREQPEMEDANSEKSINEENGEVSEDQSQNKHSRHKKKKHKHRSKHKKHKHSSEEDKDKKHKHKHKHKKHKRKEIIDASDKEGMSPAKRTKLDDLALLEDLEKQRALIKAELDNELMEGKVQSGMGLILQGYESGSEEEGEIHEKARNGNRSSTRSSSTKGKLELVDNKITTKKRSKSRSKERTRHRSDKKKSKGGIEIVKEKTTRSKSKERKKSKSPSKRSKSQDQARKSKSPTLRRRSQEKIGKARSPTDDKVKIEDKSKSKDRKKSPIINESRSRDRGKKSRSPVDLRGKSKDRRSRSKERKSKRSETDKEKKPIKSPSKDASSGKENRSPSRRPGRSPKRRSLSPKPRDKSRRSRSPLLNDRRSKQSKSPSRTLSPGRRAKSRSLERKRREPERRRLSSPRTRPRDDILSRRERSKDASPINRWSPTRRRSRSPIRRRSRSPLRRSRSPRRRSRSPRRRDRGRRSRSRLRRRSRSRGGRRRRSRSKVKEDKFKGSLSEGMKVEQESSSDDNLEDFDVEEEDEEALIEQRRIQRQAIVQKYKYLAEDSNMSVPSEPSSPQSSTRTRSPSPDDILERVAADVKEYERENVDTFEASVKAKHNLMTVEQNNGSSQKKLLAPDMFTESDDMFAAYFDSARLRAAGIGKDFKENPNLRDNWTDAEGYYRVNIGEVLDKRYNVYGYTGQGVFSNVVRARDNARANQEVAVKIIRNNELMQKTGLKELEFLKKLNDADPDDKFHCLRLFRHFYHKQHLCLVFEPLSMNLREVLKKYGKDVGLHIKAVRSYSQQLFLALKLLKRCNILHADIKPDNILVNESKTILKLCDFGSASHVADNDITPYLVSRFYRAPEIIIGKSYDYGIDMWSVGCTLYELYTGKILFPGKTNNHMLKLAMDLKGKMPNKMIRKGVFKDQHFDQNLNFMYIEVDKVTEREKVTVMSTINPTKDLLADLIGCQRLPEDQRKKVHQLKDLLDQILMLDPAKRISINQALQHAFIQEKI
Sequence of UniProt Q9UF33 (whole entry, looked up): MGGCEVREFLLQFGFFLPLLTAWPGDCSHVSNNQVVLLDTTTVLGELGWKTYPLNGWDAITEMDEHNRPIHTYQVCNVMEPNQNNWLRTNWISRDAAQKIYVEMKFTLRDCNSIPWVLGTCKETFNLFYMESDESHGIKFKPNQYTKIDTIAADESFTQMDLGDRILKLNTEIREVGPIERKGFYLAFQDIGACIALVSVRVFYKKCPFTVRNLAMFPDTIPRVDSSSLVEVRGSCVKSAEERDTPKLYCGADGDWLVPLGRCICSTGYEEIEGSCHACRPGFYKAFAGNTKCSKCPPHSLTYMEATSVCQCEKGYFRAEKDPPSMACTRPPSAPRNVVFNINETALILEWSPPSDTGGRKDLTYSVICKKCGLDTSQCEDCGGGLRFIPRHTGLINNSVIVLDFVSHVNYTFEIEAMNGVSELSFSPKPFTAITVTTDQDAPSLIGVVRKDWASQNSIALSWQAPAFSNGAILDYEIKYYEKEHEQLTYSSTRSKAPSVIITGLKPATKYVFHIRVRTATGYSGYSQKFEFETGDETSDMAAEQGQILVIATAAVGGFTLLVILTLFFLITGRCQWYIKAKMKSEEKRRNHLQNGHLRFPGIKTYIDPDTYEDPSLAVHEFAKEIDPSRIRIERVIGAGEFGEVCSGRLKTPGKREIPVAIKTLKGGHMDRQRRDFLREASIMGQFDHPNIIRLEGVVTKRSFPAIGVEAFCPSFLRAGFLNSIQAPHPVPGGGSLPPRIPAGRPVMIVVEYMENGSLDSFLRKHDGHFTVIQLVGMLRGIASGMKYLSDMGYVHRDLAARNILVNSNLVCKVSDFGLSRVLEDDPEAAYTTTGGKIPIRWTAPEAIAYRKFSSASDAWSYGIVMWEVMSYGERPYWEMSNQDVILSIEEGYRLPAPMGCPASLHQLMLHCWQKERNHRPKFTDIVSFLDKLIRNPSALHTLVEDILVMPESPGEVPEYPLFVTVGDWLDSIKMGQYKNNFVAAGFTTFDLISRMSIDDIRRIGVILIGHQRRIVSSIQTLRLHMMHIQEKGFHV
Sequence of UniProt O75582 (whole entry, looked up): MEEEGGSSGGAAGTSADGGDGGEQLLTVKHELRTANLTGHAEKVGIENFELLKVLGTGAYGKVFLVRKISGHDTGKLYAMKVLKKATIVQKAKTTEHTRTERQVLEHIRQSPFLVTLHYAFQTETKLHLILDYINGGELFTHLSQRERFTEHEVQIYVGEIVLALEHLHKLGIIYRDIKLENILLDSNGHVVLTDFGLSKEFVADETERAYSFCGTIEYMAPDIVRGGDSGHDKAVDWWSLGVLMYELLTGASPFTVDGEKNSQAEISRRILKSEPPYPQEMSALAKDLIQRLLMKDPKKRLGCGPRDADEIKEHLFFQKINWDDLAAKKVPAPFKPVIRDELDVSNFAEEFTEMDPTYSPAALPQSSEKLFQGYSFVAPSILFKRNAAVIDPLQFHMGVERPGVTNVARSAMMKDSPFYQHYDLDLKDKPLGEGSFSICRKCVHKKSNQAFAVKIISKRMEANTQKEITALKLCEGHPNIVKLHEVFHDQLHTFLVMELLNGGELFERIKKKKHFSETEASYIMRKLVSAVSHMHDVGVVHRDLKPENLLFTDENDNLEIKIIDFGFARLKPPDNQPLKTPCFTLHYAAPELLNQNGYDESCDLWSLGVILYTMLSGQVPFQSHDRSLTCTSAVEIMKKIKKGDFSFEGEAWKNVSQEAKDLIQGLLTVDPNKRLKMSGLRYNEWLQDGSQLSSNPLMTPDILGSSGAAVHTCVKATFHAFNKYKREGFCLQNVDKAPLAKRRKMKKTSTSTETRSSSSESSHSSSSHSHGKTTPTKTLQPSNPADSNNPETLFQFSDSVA
Sequence of UniProt P45983 (whole entry, looked up): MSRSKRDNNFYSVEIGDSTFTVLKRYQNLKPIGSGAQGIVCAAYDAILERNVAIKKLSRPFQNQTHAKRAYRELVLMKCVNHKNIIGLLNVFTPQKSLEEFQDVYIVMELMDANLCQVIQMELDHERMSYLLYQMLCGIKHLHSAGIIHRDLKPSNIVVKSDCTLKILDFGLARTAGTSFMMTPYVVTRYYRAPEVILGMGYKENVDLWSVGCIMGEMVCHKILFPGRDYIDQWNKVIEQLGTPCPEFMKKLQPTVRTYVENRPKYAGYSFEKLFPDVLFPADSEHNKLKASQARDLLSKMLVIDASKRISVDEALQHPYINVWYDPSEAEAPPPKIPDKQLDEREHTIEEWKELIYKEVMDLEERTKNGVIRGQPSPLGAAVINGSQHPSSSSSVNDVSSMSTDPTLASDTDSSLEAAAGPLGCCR
Sequence of UniProt O14733 (whole entry, looked up): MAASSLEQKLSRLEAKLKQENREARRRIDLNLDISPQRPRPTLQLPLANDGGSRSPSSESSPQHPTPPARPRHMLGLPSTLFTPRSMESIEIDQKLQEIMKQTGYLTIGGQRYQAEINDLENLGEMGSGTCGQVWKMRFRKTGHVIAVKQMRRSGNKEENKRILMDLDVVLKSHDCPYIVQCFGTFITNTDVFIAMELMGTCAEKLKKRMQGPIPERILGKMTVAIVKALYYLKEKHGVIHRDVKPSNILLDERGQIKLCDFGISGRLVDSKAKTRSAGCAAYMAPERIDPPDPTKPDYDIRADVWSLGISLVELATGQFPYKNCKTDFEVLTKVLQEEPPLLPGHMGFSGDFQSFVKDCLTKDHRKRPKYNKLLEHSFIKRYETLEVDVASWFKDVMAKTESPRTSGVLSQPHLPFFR

Set 1 — observed: cell-free assay; method: competition with immobilised ligand; tested at: 1 µM
Structure (SMILES): O=C(NCc1ncc(C(F)(F)F)cc1Cl)c1ccc2c(c1)C1(CCS(=O)(=O)CC1)[C@H](C1CC1)N2S(=O)(=O)c1ccc(F)cc1
target	remaining binding [%]
MATK (Homo sapiens, UniProt P42679)	73
STK35 (Homo sapiens, UniProt Q8TDR2)	100
MTOR (Homo sapiens, UniProt P42345)	100
EPHA6 (Homo sapiens, UniProt Q9UF33)	100
MAPK8 (Homo sapiens, UniProt P45983)	87
MAP3K13 (Homo sapiens, UniProt O43283)	0
CDKL3 (Homo sapiens, UniProt Q8IVW4)	100
MAP2K7 (Homo sapiens, UniProt O14733)	72
PRPF4B (Homo sapiens, UniProt Q13523)	100
Ribosomal protein S6 kinase alpha-5, C-terminal kinase domain (RPS6KA5, Homo sapiens, UniProt O75582)	100

Set 2 — method: RNA Bind-n-Seq; molecule type: RNA; medium: in vitro; tested at: 200 nM; notes: whole 134-nt RNA, ends assumed; with: 150 mM KCl; relative to: input library; direction: higher = stronger binding
Target: Fragile X messenger ribonucleoprotein 1, C-terminal low-complexity region (Fmr1, Mus musculus, UniProt P35922)
All sequences stand within: GGGAGUUCUACAGUCCGACGAUC … UGGAAUUCUCGGGUGUCAAGG
Sequence	log2 enrichment
UGGCCCUGGUGGCAUGCGGGGAGGAAGAGGUGGCCUCAUGGAUCGUGGUGGUCCCGGUGGAAUGUUCCGAGGUGGCCGUGGUGGAGACAG	-0.0311
CUCAAGUCCUGUGCUACACAUCGUAUGUACCGAAUCGGAGGAAAAAGGUUUGGAAAGUAUUAUGUUACGCCGUUCGGAUCUGCACUUCCA	-0.518
UCCUGUGCUACACAUCGUAUGUACCGAAUCGGGGAAAGGGGAAAAAGGGGUUUUUGGGGAAAGUAUUAUGUUACGCCGUUCGGAUCUGCA	0.609
AAGUCCUGUGCUACACAUCGUAUGUACCGAAUCGGGGAAAGGGGAAAGGGGAGGGGAAAGUAUUAUGUUACGCCGUUCGGAUCUGCACUU	0.38
UGGGAGGUGGAUUUUGUUUAUUUUUUUAGCUCAUUUCCAGGGGUGGGAAUUUUUUUUUAAUAUGUGUCAUGAAUAAAGUUGUCUUUGAAA	0.664
UGCUGCGGAAGGGCUCUGGCACUCUGUGUGAGGCCUUGCUGAUGGUGCAGGCCUUCCACGCCAACAUCAUCUUCCCCAACAAGCAAGAGC	0.0801
UAACUUUAGAGGAGGAUCUUAUGGAUAUGGCAGUGGACGUGGAUUUGGGGAUGGCUAUAAUGGGUAUGGAGGAGGACCUGGAGGUGGCAA	0.275
AGUCCUGUGCUACACAUCGUAUGUACCGAAUCGGGGUUUGGGGUGGGGUUUUUGGGGAAAGUAUUAUGUUACGCCGUUCGGAUCUGCACU	0.863

Set 3 — host: human; medium: microsomes or S9; tested at: 2 µM; time: 0.5 h
SMILES	remaining compound
CC(C)NC(=O)Nc1ccc(O)c(-c2nc(-c3nnc[nH]3)no2)c1	69.3%
COC(=O)c1cc(O)c(=O)c2c(O)c(O)ccc2c1	38.9%
OC1CCCC1Oc1cc(-n2nc3c(c2Cl)CCCC3)c(F)cc1Cl (stereo not shown)	18.2%

Other studies, line by line
SMILES	method	host	route	dose	notes	measurement	value
CC(C)n1cnc(-c2ccc(F)cc2)c1-c1ncc(C(=O)Nc2ccc(N3CCN(C)CC3)cc2)[nH]1	phase 2a trial	idiopathic pulmonary fibrosis patients	oral	30 mg once daily	urine red cells, grade 4	patients with TEAE	0%

Some of these lines once more (set 1):
target	remaining binding [%]
Ribosomal protein S6 kinase alpha-5, C-terminal kinase domain (RPS6KA5, Homo sapiens, UniProt O75582)	100
